{"data": "Published values from different studies", "B1": "Fmnl3 555-954 R782A (Mus musculus, UniProt Q6ZPF4); chain GLSAIRIKKPIKTKFRLPVFNWTALKPNQINGTVFSELDDEKILEDLDLDRFEELFKTKAQGPALDLICSKNKTAQKAASKVTLLEANRAKNLAITLRKAGRSAEEICRAIHTFDLQTLPVDFVECLMRFLPTEAEVKLLRQYERERQPLEELAAEDRFMLLFSKVERLTQRMAGMAFLGNFQDNLQMLTPQLNAIIAASASVKSSQKLKQMLEIILALGNYMNSSKAGAVYGFKLQSLDLLLDTKSTDRKMTLLHFIALTVKEKYPELANFWQELHFVEKAAAVSLENVLLDVKELGRGMELIRRECSIHDNSVLRNFLSTNEGKLDKLQRDAKTAEEAYNAVVRYFGESPKTTPPSVFFPVFVRFIRSYKEAEQENEARKKQEEVMREKQLAQEAKKL", "note": "Each line is one published result; not all experiments were run side by side. ± marks the error that the study gave. Bridge positions count the residues as written; N and C are the ends. Square brackets hold non-standard residues; d marks the D form. Where no end group is shown, it is not given here. Ends that are not written are not given here. [ ]: non-standard residue; d: D form.", "chain of UniProt Q13761 (whole entry, looked up)": "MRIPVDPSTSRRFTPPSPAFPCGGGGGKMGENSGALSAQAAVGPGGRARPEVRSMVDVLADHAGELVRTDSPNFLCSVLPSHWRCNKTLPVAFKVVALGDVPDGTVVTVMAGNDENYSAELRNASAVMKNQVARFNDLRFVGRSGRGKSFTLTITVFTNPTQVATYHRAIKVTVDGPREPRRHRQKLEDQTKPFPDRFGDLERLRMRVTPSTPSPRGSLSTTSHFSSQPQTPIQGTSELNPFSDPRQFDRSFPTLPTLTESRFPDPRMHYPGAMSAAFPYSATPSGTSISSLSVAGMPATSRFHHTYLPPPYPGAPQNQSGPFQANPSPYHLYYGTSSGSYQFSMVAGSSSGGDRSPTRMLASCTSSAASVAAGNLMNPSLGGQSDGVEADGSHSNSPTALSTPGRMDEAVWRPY", "chain of UniProt P03018 (whole entry, looked up)": "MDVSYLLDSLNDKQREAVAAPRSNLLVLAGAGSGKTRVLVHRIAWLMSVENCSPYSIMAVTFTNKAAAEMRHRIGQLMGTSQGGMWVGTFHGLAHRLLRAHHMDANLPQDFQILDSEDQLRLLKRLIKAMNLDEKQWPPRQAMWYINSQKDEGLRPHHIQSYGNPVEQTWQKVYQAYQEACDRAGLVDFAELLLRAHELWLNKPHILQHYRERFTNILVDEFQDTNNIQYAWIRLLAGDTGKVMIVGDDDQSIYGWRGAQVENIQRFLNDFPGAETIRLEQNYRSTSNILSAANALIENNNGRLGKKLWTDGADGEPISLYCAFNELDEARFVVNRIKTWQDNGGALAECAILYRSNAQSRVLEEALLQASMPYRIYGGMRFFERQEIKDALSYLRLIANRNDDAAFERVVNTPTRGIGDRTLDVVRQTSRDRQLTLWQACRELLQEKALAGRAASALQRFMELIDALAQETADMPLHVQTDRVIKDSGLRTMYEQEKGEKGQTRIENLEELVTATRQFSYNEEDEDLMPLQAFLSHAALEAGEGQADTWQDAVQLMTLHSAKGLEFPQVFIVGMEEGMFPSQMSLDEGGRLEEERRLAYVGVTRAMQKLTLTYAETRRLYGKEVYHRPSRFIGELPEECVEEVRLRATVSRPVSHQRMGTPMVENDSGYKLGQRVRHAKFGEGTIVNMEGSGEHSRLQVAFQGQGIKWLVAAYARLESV", "chain of UniProt P43403 (whole entry, looked up)": "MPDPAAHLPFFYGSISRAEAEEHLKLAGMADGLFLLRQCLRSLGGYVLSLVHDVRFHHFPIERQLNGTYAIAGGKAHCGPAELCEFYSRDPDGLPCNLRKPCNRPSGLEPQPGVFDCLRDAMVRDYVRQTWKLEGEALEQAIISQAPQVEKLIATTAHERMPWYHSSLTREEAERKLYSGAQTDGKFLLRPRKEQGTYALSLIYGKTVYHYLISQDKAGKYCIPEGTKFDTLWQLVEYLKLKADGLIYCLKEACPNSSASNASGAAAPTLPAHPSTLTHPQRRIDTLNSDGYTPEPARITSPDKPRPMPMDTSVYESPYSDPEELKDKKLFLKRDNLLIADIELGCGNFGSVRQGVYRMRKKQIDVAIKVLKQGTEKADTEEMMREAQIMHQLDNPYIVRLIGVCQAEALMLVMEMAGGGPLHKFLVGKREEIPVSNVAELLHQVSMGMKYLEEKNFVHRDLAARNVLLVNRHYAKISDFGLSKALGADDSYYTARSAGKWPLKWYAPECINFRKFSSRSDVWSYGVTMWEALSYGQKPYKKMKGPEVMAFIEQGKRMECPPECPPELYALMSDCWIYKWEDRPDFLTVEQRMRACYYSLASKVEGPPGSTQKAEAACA", "chain of UniProt O15392 (whole entry, unmodified, looked up)": "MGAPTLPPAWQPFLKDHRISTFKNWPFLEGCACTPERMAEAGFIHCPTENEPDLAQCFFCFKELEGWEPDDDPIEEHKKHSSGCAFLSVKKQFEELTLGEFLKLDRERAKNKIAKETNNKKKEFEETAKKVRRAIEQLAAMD"}
{"Substance": "RmS-3, glycosylated (Rhipicephalus microplus) (sequence not shown)", "target or system": "F2 thrombin (Bos taurus)", "test": "chromogenic substrate hydrolysis, inhibitor", "conditions": "1 µM", "endpoint": "protease inhibition", "value": "< 20%"}
{"Substance": "VLRKTRHVNILLFAG (BRAF 504-518 M517A)", "target or system": "BRAF kinase domain with dimer interface", "test": "fluorescence titration", "test system": "peptide", "endpoint": "Kd", "value": "540 ± 150 nM"}
{"Substance": "MIFLDHILNKFWILHYAGSGSSG (SPAM peptide del2; peptide-RNA fusion)", "target or system": "CD274 ectodomain (Homo sapiens)", "test": "radioligand binding", "test system": "peptide", "how to read": "baseline: full-length SPAM, higher = more binding", "endpoint": "relative binding", "value": "< 25%"}
{"Substance": "GCVRLHESCLGQQVPCCDPAATCYCVERGDGNRRCYCR (AgRP variant)", "target or system": "ITGAV/ITGB3 whole, on cells (Homo sapiens)", "test": "competition with labeled echistatin, radioligand binding", "test system": "designed binder, U87MG", "conditions": "3 h, room temperature, added: 125I-echistatin 0.06 nM", "endpoint": "IC50", "value": "130 nM"}
{"Substance": "RmS-6, glycosylated (Rhipicephalus microplus)", "target or system": "trypsin (Bos taurus)", "test": "chromogenic substrate hydrolysis, inhibitor", "conditions": "1 µM", "endpoint": "protease inhibition", "value": "73.5%"}
{"Substance": "GVLRKTRHVNIALFMGYST (BRAF 503-521 L514A)", "target or system": "BRAF kinase domain with dimer interface", "test": "fluorescence titration", "test system": "peptide", "endpoint": "Kd", "value": "9800 ± 1600 nM"}
{"Substance": "CGNQL[pY]NELNLGRREE (CD247 residues 69-82; phosphotyrosine; pY = N[C@@H](Cc1ccc(OP(=O)(O)O)cc1)C(=O)O)", "target or system": "ZAP70 1-606 (Homo sapiens, UniProt P43403)", "test": "competition with labelled peptide, TR-FRET", "test system": "peptide", "endpoint": "Ki", "value": "112 ± 1.5 µM"}
{"Substance": "RmS-17, glycosylated (Rhipicephalus microplus)", "target or system": "F10 factor Xa (Bos taurus)", "test": "chromogenic substrate hydrolysis, inhibitor", "conditions": "1 µM", "endpoint": "protease inhibition", "value": "< 20%"}
{"Substance": "MFLDHILNKFWILHYAGSGSSG (SPAM peptide del2-3; peptide-RNA fusion)", "target or system": "CD274 ectodomain (Homo sapiens)", "test": "radioligand binding", "test system": "peptide", "how to read": "baseline: full-length SPAM, higher = more binding", "endpoint": "relative binding", "value": "< 25%"}
{"Substance": "VLRKTRHVNALLFMG (BRAF 504-518 I513A)", "target or system": "BRAF kinase domain with dimer interface", "test": "fluorescence titration", "test system": "peptide", "endpoint": "Kd", "value": "2690 ± 350 nM"}
{"Substance": "B1 (Fmnl3 555-954 R782A)", "target or system": "ACTA1, TMR label (Oryctolagus cuniculus, UniProt P68135)", "test": "AUC", "conditions": "KCl 50 mM", "endpoint": "fraction bound", "value": "0.7 fraction"}
{"Substance": "GCVRLHESCLGQQVPCCDPAATCYCYGRGDNDLRCYCR (AgRP variant)", "target or system": "ITGAV/ITGB3 whole, on cells (Homo sapiens)", "test": "competition with labeled echistatin, radioligand binding", "test system": "designed binder, U87MG", "conditions": "3 h, room temperature, added: 125I-echistatin 0.06 nM", "endpoint": "IC50", "value": "20 nM"}
{"Substance": "VLAKTRHVNILLFMG (BRAF 504-518 R506A)", "target or system": "BRAF kinase domain with dimer interface", "test": "fluorescence titration", "test system": "peptide", "endpoint": "Kd", "value": "360 ± 30 nM"}
{"Substance": "MoaA peptide (Staphylococcus aureus)", "target or system": "moaA D206A/G340A (Staphylococcus aureus, UniProt P69848)", "test": "MoaA/MoaC coupled assay", "conditions": "200 µM", "how to read": "baseline: 8-mer peptide, higher = more activity", "endpoint": "restored activity", "value": "> 5 fold"}
{"Substance": "Ac-VLRKTRHVNILLFMG (BRAF 504-518; N-terminal acetyl)", "target or system": "BRAF kinase domain with dimer interface", "test": "fluorescence titration", "test system": "peptide", "endpoint": "Kd", "value": "800 ± 83 nM"}
{"Substance": "CNCKAPETALCARRCQQH-NH2 (Apamin; disulfide 1-11, 3-15; sequence looked up)", "target or system": "Protein Mdm4, residues 24-108 (MDM4, Homo sapiens, UniProt O15151)", "test": "SPR competition", "test system": "peptide, synthetic MDMX (24-108)", "conditions": "added: immobilized p53 (15-29)", "endpoint": "Kd", "value": "no binding"}
{"Substance": "AR[pT]KQTARKSTG (H3C1 1-12; pT3; pT = C[C@@H](OP(=O)(O)O)[C@H](N)C(=O)O)", "target or system": "BIRC5 1-142 (Homo sapiens, UniProt O15392)", "test": "ITC", "test system": "peptide", "conditions": "pH 7.8, 25 °C", "endpoint": "Kd", "value": "15600 ± 600 nM"}
{"Substance": "uvrD (Escherichia coli, UniProt P03018)", "target or system": "rpoA/rpoB/rpoC/rpoZ (Escherichia coli)", "test": "dynamic light scattering", "endpoint": "molecule per partner", "value": 2}
{"Substance": "LLKTRHVNILLFMG (BRAF 505-518 R506L)", "target or system": "BRAF kinase domain with dimer interface", "test": "fluorescence titration", "test system": "peptide", "endpoint": "Kd", "value": "550 ± 105 nM"}
{"Substance": "RUNX3 (Homo sapiens, UniProt Q13761)", "target or system": "CagA (Helicobacter pylori, UniProt P80200)", "test": "cycloheximide chase", "test system": "COS-7", "conditions": "co-expressed with CagA, added: cycloheximide 100 µg/mL", "endpoint": "half-life", "value": "1.5 h"}
{"Substance": "AR[pT]KQTARKSTGGKA (histone H3 2-16 (UniProt P68431); pT3; pT = C[C@@H](OP(=O)(O)O)[C@H](N)C(=O)O; sequence looked up)", "target or system": "BIRC5 E51A (Homo sapiens, UniProt O15392)", "test": "ITC", "test system": "peptide", "conditions": "pH 7.5, 25 °C, NaCl 100 mM", "endpoint": "Kd", "value": "14300 ± 2200 nM"}
{"Substance": "VLRKTRAVNILLFMG (BRAF 504-518 H510A)", "target or system": "BRAF kinase domain with dimer interface", "test": "fluorescence titration", "test system": "peptide", "endpoint": "Kd", "value": "2700 ± 400 nM"}
{"Substance": "MENVKKATATTTWMVPTAQ (L3MBTL3 52-70 (Homo sapiens, UniProt Q96JM7-2); sequence looked up)", "target or system": "Rbpj 53-474 E260A (Mus musculus, UniProt P31266)", "test": "ITC", "test system": "peptide", "conditions": "pH 6.5, 25 °C, NaCl 150 mM, one site model", "endpoint": "Kd", "value": "3800 nM"}
{"note": "A few entries again:"}
{"Substance": "VLRKTRHVNILLFAG (BRAF 504-518 M517A)", "target or system": "BRAF kinase domain with dimer interface", "test": "fluorescence titration", "test system": "peptide", "endpoint": "Kd", "value": "540 ± 150 nM"}
{"Substance": "MIFLDHILNKFWILHYAGSGSSG (SPAM peptide del2; peptide-RNA fusion)", "target or system": "CD274 ectodomain (Homo sapiens)", "test": "radioligand binding", "test system": "peptide", "how to read": "baseline: full-length SPAM, higher = more binding", "endpoint": "relative binding", "value": "< 25%"}
{"Substance": "GCVRLHESCLGQQVPCCDPAATCYCVERGDGNRRCYCR (AgRP variant)", "target or system": "ITGAV/ITGB3 whole, on cells (Homo sapiens)", "test": "competition with labeled echistatin, radioligand binding", "test system": "designed binder, U87MG", "conditions": "3 h, room temperature, added: 125I-echistatin 0.06 nM", "endpoint": "IC50", "value": "130 nM"}
